Measurements gathered from unrelated publications.
Parts stem from different laboratories: compare values within a part only.

Study 1
Target: Histone acetyltransferase KAT6A, winged helix 1, GST fusion (KAT6A, Homo sapiens, UniProt Q92794, residues 1-85)
Technique: protein binding microarray
Molecule type: double-stranded DNA, one strand shown
Matrix: in vitro
Concentration: not given
Setting: 8-mer, flanks averaged, mean of 2 arrays, mostly near background
Relative to: not given
Direction: higher = stronger binding
Construct (chain): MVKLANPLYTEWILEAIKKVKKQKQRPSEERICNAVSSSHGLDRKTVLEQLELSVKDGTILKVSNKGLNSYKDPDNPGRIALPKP
| Sequence | E-score |
| --- | --- |
| GTCCTGTA | 0.116 |
| CAGTCGCG | 0.249 |
| GATTCGTA | -0.0184 |
| CGTAACGC | 0.349 |
| ACGCGTGA | 0.212 |
| CACTCCTC | -0.193 |
| CGGTCGGC | 0.431 |
| CAAGACCA | -0.232 |
| ACTCCAGC | -0.123 |
| CTCCAGGC | 0.00689 |
| CGCGTACG | 0.419 |
| GCTAGCTA | 0.0263 |
| CGTCGCTA | 0.286 |
| ATTCTCGG | 0.0746 |
| AACCCGAG | 0.194 |
| CGTTTATA | 0.0747 |
| CCGGTGCG | 0.322 |
| AATCTTTC | -0.125 |
| GCAAACCC | 0.103 |
| CATCTCCG | -0.0654 |
| CTGAGCTA | 0.00214 |
| ATGCAGGA | -0.34 |
| GGGCGGGA | 0.376 |
| CGTCTTTA | -0.0172 |
| AGCACTAA | -0.185 |

Study 2
Target: RING finger protein unkempt homolog, zinc fingers 1-6, GST-SBP tag (UNK, Homo sapiens, UniProt Q9C0B0, residues 30-357)
Technique: RNA Bind-n-Seq
Molecule type: RNA
Matrix: in vitro
Concentration: not given
Setting: RNA with constant flanks, human and mouse sites, ends assumed
Relative to: input RNA pool
Direction: higher = stronger binding
Shared flanks, not repeated: GGGAGUUCUACAGUCCGACGAUC … CAACAGAGGAUUGAGCAUCA
Target sequence (chain): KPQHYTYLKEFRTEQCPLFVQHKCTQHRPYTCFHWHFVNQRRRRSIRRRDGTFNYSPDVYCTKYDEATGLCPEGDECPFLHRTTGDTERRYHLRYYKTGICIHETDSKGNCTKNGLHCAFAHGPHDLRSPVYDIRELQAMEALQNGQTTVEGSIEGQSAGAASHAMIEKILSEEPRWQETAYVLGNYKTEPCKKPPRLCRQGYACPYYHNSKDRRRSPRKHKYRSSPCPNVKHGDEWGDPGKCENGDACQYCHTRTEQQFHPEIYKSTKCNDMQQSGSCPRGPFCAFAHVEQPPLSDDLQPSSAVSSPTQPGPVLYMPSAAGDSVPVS
| Sequence | bound/input enrichment |
| --- | --- |
| UAUUCAAUGGAUUCACUUUCCAGUUGGUAUAUGACUGUCACACAGAAGACGGACCCAAAAAUGCUAAGCAAAAAAAGGACUACUUCUAGCCAAUGGCAGUCUCCUCCUGUUGUCGUUAUC | 0.0737 ratio |
| GAAUUUGCCUAUACUUCUGUACUAAGUUUUGAUUUCUGUAGCAUGGCUGAUGUAGCCAUCUUAGCUCGUCAUCUUUUCAUGUCAGAAGUCUUAGAGAUUUGUGAAAGUGUACAUAAGCUA | 0.297 ratio |
| AGCACCCCCGGGAGCGGGGCUCGCAGCCGGGGACCAGCCCUGCAGCGCCCAUCUGGGGGCUAGUUCUUAACUCUUCCUCCACGGAGCCCCAGACGGGUCCCCUCCCUUCUUGAUCCUUUU | 0.167 ratio |
| CGGAAACACAUCCAGGAUGAAAAGCUAGUCCGGUACUUCUUGGAUAAAACACUGACGUCAAGACUUGGGAUCCGAAUGCUGGCUACUCACCACUUGGCGCUACAUGAAGACAAGCCUGAU | 0.135 ratio |
| UCUUCAUUGAGUUUGUCAAUAGGACAUUGAUGCUGGAUAGGUUGUCUUUUGUUUUUAUGUCUCAGACCAUCUUGUGAGAUUGUUUGCCUAUCUCAUAAUACAGUUUUAUGCAGAAAGGUU | 0.42 ratio |
| AGAGCUGCCCGUGGUGGGUGUCAGCAGUGUGUCAUGGUCGCCACACAGCAGGGGGUGUGAUAGGUCAGCCACGUGAUCCUCAUCUGCACAGAAGCAGAGAGGGCCCCAGGCCCCUGGCCU | 0.206 ratio |
| GGGGUUCCUAGUACUGCAAUUCGGGAAAUUUCUCUAUUAAAGGAACUUCGUCAUCCAAAUAUAGUCAGUCUUCAGGAUGUGCUUAUGCAGGAUUCCAGGUUAUAUCUCAUCUUUGAGUUU | 0.121 ratio |
| UUGUGGGCGUUCUCGGGGAGCUGCUGCCGUAGCUGCCGCCGCCGCUACCACCGCGUUCGGGUGUAGAAUUUGGAAUCCCUGCGCCGCGUUAACAAUGAAGCAGAGUUCGAACGUGCCGGC | 0.0592 ratio |
| GUCCCCGACUCCUUCCUCCCCCUUCCCUCCCCCUUUUUUUUGUUUUCCGUUCCCCUUUCCCCUCCCUUCCCUAUCCCCGACGACCGGAUCCUGAGGAGGCAGCUGCGGUGGCAGCUGCUG | 1.32 ratio |
| GGUCCCUGGGGAGCUCAGCACCCACCUAUAUCCCUGCCAGUUCCUGAAGGUCUUUCCACUCCUGUUCAUUUCUGUUCUGAUGUCUCUUUCCUCACACUGACCUCCCCUAUAAAAACACAC | 1.11 ratio |
| AUGGAACAUUUCGAUGCGUCACUCAGUACCUAUUUCAAGGCCUUCCUGGGCCCCCGAGAUACAAGAGUCAAAGGAUGGUUCCUCCUGGACAAUUACAUCCCUACGUUUGUCUGUUCUGUU | 0.0841 ratio |

Study 3
Target: Ras GTPase-activating protein-binding protein 1, RRM domain (G3BP1, Homo sapiens, UniProt Q13283)
Sequence of UniProt Q13283 (whole entry, looked up): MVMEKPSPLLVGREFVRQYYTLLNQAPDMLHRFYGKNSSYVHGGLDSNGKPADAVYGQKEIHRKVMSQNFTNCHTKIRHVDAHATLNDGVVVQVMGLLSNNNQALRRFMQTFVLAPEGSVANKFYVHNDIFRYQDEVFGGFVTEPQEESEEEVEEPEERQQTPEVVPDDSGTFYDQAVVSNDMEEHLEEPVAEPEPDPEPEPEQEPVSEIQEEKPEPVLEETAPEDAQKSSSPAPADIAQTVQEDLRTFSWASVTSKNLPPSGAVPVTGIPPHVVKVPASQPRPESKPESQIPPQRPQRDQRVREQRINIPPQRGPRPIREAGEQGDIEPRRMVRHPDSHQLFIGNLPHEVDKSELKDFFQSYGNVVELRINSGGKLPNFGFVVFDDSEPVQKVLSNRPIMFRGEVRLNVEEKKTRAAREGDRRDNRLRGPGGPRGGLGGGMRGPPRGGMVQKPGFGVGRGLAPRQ
Technique: RNA Bind-n-Seq
Molecule type: RNA
Matrix: in vitro
Concentration: 1 µM
Setting: whole 134-nt RNA, ends assumed
Together with: 150 mM KCl
Relative to: input library
Direction: higher = stronger binding
Shared flanks, not repeated: GGGAGUUCUACAGUCCGACGAUC … UGGAAUUCUCGGGUGUCAAGG
| Sequence | log2 enrichment |
| --- | --- |
| CCUGUGCUACACAUCGUAUGUACCGAAUCGGGGAAAAAAAGGAAAAAAAGGAAAAAAAGGAAAGUAUUAUGUUACGCCGUUCGGAUCUGC | 0.179 |
| GCAGGAAGUAAAAACAAAUGGAAUUGCUUCGGAUAGUGGCAGGGGUGGGGGUUGCUAAGGAAAGGGUGGGAUGGGAGUGGGUAAAGAGUU | 1.27 |
| AGUCCUGUGCUACACAUCGUAUGUACCGAAUCGGGGAAAAAAAGGGGUGGGGUGGGGAAAGUAUUAUGUUACGCCGUUCGGAUCUGCACU | 0.636 |
| AGUCCUGUGCUACACAUCGUAUGUACCGAAUCGGGGAGGGGUUUGGGGAAAAAGGGGAAAGUAUUAUGUUACGCCGUUCGGAUCUGCACU | 1.21 |
| CCUCAAGUCCUGUGCUACACAUCGUAUGUACCGAAUCGGUGGUUUUUGGAGGAAAGUAUUAUGUUACGCCGUUCGGAUCUGCACUUCCAG | -0.157 |
| AGUCCUGUGCUACACAUCGUAUGUACCGAAUCGGUUUGGAAAAAAAGGAAAAAAAGGAAAGUAUUAUGUUACGCCGUUCGGAUCUGCACU | 0.0649 |
| ACCAUGCAGGUGGGCAUCUUUGGGAAGUGGGGCAAGCGGGGGAUAGGGAGGGGGGUAACACUUUGGGAACAGGUGGUCCCAGGUCGUUUC | -0.317 |
| GCAGGAAGUAAAAACAAAUGGAAAUGCUUCGGAUAGUGGCAGGGGUGGGGGUUGCUAAGGAAAGGGUGGAAAGGGAGUGGGUAAAGAGUU | 0.827 |
| ACCAUGCAGGUGGGCAUCUAUGGGAAGUGGGGCAAGGGGGGGAUAGGGAGGGGGGUAACACUUUGGGAACAGGUGGUCCCAGGUCGUUUC | -0.529 |
| UGGGAGGUGGAUUUUGUUUAUUUUUUUAGCUCAUUACCAGGGGUGGGAAUUUUUUUUUAAUAUGUGUCAUGAAUAAAGUUGUUUUUGAAA | 2.07 |
| ACCAUGCAGGUGGGCAUCUUUGGGAAGUGGGGCAAGGGGGGGAUAGGGAGGGGGGCAACACUUUGGGAACAGGUGGUCCCAGGUCGUUUC | -0.154 |
| CUGUGCUACACAUCGUAUGUACCGAAUCGGGGUUUUUUGGGGUUUUUUGGGGUUUUUUGGGAAAGUAUUAUGUUACGCCGUUCGGAUCUG | -0.132 |
| GUCCUGUGCUACACAUCGUAUGUACCGAAUCGGGUUUUUGGGUUUUUGGGAAAAAGGGAAAGUAUUAUGUUACGCCGUUCGGAUCUGCAC | 0.0316 |
| ACGCUCCAUGAAAGCUAGGAGGGAGUGAAAUAUCAGUGAUCAUCGCAAGGAAGGAGGCAGACAAGAGUAAGGCACACCUGACUCUUAGGA | -0.186 |

Study 4
Target: RNA binding protein fox-1 homolog 2, RRM domain, GST-SBP tag (RBFOX2, Homo sapiens, UniProt O43251-10, residues 100-194)
Technique: RNA Bind-n-Seq
Molecule type: RNA
Matrix: in vitro
Concentration: 365 nM
Setting: natural RNA segment, single round, ends assumed
Relative to: no-protein control
Direction: higher = stronger binding
Shared flanks, not repeated: GGGAGUUCUACAGUCCGACGAUC … UGGAAUUCUCGGGUGCCAA
Residues (chain): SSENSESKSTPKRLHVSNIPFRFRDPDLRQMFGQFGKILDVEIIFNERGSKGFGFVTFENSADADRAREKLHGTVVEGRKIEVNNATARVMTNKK
| Sequence | RBNS enrichment (R) |
| --- | --- |
| UUCUCCGCUCUGUGGUGCAAUAUCCCUAUUUGUAGGGACUACAAGAAAUAACUUUGAAGGGAAAAAAGUCAUUAGCUUAGAAUAUGAAGCAUAUCUACCCAUGGCGGAAA | 0.838 |
| UCUCAUGCUGGCUUCUUCAGAUACUUUGAAAAACCCGGACAGCCACACCAGAGAGGCCUUAUAGCGGCCCCGGAGCUAAACGCACCAGAGAAAAACCAGUGCUUCCUACU | 0.23 |
| UGAGCCAUGAAAAAAGUAAUGAACUUGUGCUGUUAAUCGUCACUGUAAUGAGAAGUCUUACGUACAACAUAGCUGUGGUGGCUUAAUGGCUGCAUUAGAUAGGAUCCUCA | 0.371 |
| UGCUGUGGGAGUUUCUAGAGAAGUACCCUUCAGCUGAAGUGGCCCGAGCUGCCGACUGGAGGGACGUGUCGGAGCUUCUCAAGCCUCUUGGUCUCUACGAUCUCCGUGCA | 4.15 |
| CAAGGUCAGCUGUCAAAAGGAUAAGCUGUGGGGUUAGAACAUAUUACAUUGCAACAUCCUAAAUUGUUUUUAAAACGUCAGCAAACUAUUGGGUCAACUGACAUCCAUUG | 0.334 |
| GAUAAUUGAAACAUGUUAAAACAUUUAAUAUUGUAUAGGAUAUUGCUAAUUGUGUAUAUGUUGGUUUAAUUAUUAAUUAUGUACUAAGAAUGUCCUUAUUCUUGUGGUUA | 0.493 |
| UGUUGGAUACCAAAGCACGGUAGCUGCCGGGUGAGCGGCAGUGAUUGGCAGAGAUGGGGACUUGAGUGACCAUGUUGGGUUCCCUUCUUCUCCUUCUUGCAGGACACAAA | 2.11 |
| AGGAACAAUCACCACAACAUGAUGUAGGUGCCACCCACCUCCUGAGCUGUUUUUGUAAAAUGACUGCUGACAGCAAGUUCUUGCUGCUCUCCAAUCUCAUCAGACAGUAG | 0.161 |
| UGGCUGGUGUUGGUGACCCUGAUGUAUGGCAGAGCCCUUGGGGAGAAGAGACCCUGAGGGAAGGGCAAGGCUUUUCCUUUUUGGCUCUGGUUCCCAGGGUCAUCCGCCUU | 0.407 |
| UCUGUUGCUUCAGUAAAAGGACCUCGGGGAAUAAAACAUUUCUCUCUUAUAUGCCAGAAUGUAGGCUGGUCCCUAUGUCAUGUCUUCCAUUAAGAACACUAAAAAGUCCU | 0.721 |
| CUGGUCGCUGCAGAUUCUCAGCAGCACUUUUACUGUAUAUAGAAAUUGAAAUAAAGACCUCAGCUAUAACCUGGUGGUCAGACUCAUGUUUGUUUUGCUUUUUAUUUUUG | 0.965 |
| UGCCUGCUUUGCCUCCUCCUGUGUUUCCCUGCUCCAGGGCCACUUCCAGGGAUUACAUGGAGGAUCACCGAUGUCUUUUCUCAUGCCCACCAGAUAUCAAGUACUCAUGA | 0.887 |

Excerpt of the above (study 1):
| Sequence | E-score |
| --- | --- |
| CGTCGCTA | 0.286 |
| CGCGTACG | 0.419 |
| GATTCGTA | -0.0184 |
| AACCCGAG | 0.194 |
| ACGCGTGA | 0.212 |
| ATTCTCGG | 0.0746 |
| ATGCAGGA | -0.34 |
